Measurements from different studies.
Compare with care: the assays were run in different laboratories. “And” joins repeats or separate records; there may be more than shown. Numbers after ± are the reported error.
Organism: HIV-1

C=C(C)[C@]12C[C@@H](C)[C@@]34OC(c5ccccc5)(O[C@@H]1[C@@H]3[C@H](O)[C@](O)(COC(=O)c1ccccc1)[C@@H](O)[C@@]1(O)[C@H]4C[C@H](C)[C@@H]1O)O2 — EC50 (viral replication, luciferase reporter; MT-4, NL4-3 Nanoluc-sec): 134 ± 19.2 nM
CN(C)c1ccc(/N=N/c2ccc(Cl)cc2)cc1 — EC50 (viral replication; MT4, IIIB): > 100000 nM
COc1cc(-n2sc3ccccc3c2=O)ccc1F — IC50 (viral replication): 320 nM and 210 nM
Cc1ccnc2c1NC(=O)c1cccnc1N2C1CC1 — resistance fold (MTT; MT4, RT L100I/V179D/Y181C mutant; relative to: mutant EC50 over IIIB EC50): > 106
N#Cc1cc(-n2sc3ccccc3c2=O)ccc1F — inhibition (viral replication; 3 µM): > 60%
Nc1ccn([C@@H]2CS[C@H](CO)O2)c(=O)n1 — resistance fold (MTT; MT4, RT L100I/V179D/Y181C mutant; relative to: mutant EC50 over IIIB EC50): 1.8
Cc1nnc(C(=O)NC(C)(C)c2nc(C(=O)NCc3ccc(F)cc3)c(O)c(=O)n2C)o1 — EC50 (viral infection): 20 nM
CC(C)CN(C[C@@H](O)[C@H](Cc1cc(F)cc(F)c1)NC(=O)O[C@H]1C[C@@H]2C[C@H]3[C@H](OC[C@H]31)O2)S(=O)(=O)c1ccc2nc(NC3CC3)sc2c1 — IC50 (viral replication): 0.029 ± 0.013 nM
CN(C)C(=O)CCOc1ccccc1Oc1cccc2cc(C#N)ccc12 — EC50 (viral cytopathic effect; MT-2, IIIB): 2.7 ± 20 nM
COC(=O)N[C@H](C(=O)N[C@@H](Cc1ccccc1)[C@@H](O)CN(Cc1ccc(-c2ccccn2)cc1)NC(=O)[C@@H](NC(=O)OC)C(C)(C)C)C(C)(C)C — IC50 (viral replication; MT-4): 4 ± 0.7 nM
Cc1cc(/C=C/C#N)cc(C)c1Nc1ccnc(Nc2ccc(C#N)cc2)n1 — EC50 (viral replication; TZM-bl, A17 K103N/Y181C; 48 h): 1.86 ± 1.09 nM
O=c1c2ccccc2sn1-c1ccc(F)cc1 — IC50 (viral replication): 5430 nM
C=CC(=O)n1c(=O)n(CCOc2cc(Cl)ccc2Oc2cc(Cl)cc(C#N)c2)c2ccccc21 — EC50 (viral cytopathic effect; MT-2, IIIB, wild type): ~400 nM
O=c1c2ccccc2sn1-c1ccc(F)c(F)c1 — inhibition (viral replication; 3 µM): > 60%
Nc1ccn([C@H]2CC[C@@H](CO)O2)c(=O)n1 — resistance fold (MTT; MT4, RT A98G/V106I/V179D/Y181C/G333E mutant; relative to: mutant EC50 over IIIB EC50): 1
C[C@H](Cn1cnc2c(N)ncnc21)OCP(=O)(O)O — EC50 (viral cytopathic effect; MT-4, NL4.3): 3770 nM
O=c1c2ccccc2sn1Cc1ccc(Cl)cc1 — IC50 (viral replication): 17300 nM
Cc1cc(C#N)cc(C)c1Oc1nc(Nc2ccc(C#N)cc2)nc(N)c1Br — resistance fold (MTT; MT4, RT L100I/V179D/Y181C mutant; relative to: mutant EC50 over IIIB EC50): 41
O=C(c1ccc(OS(=O)(=O)F)cc1O)c1ccc(OS(=O)(=O)F)cc1O — EC50 (viral replication, β-gal reporter; P4/R5 cells, NL4-3): 7300 nM
Cn1c(Cn2ccc(C(F)(F)F)c(Oc3cc(Cl)cc(C#N)c3)c2=O)n[nH]c1=O — resistance fold (MTT; MT4, RT A98G/V106I/V179D/Y181C/G333E mutant; relative to: mutant EC50 over IIIB EC50): 75
Cc1ccc(-n2sc3ccccc3c2=O)cc1 — IC50 (TZM-bl; 48 h): 1100 nM

Some of these lines once more:
Nc1ccn([C@@H]2CS[C@H](CO)O2)c(=O)n1 — resistance fold (MTT; MT4, RT L100I/V179D/Y181C mutant; relative to: mutant EC50 over IIIB EC50): 1.8
Cc1ccnc2c1NC(=O)c1cccnc1N2C1CC1 — resistance fold (MTT; MT4, RT L100I/V179D/Y181C mutant; relative to: mutant EC50 over IIIB EC50): > 106
CC(C)CN(C[C@@H](O)[C@H](Cc1cc(F)cc(F)c1)NC(=O)O[C@H]1C[C@@H]2C[C@H]3[C@H](OC[C@H]31)O2)S(=O)(=O)c1ccc2nc(NC3CC3)sc2c1 — IC50 (viral replication): 0.029 ± 0.013 nM
O=c1c2ccccc2sn1-c1ccc(F)cc1 — IC50 (viral replication): 5430 nM
